{"data": "Assay results from different studies", "note": "Numbered parts are unrelated; each lists some results of a single study. Values joined by “and” are separate records of one study, mostly repeats; a detail may differ.", "sequence of UniProt P25098 (whole entry, looked up)": "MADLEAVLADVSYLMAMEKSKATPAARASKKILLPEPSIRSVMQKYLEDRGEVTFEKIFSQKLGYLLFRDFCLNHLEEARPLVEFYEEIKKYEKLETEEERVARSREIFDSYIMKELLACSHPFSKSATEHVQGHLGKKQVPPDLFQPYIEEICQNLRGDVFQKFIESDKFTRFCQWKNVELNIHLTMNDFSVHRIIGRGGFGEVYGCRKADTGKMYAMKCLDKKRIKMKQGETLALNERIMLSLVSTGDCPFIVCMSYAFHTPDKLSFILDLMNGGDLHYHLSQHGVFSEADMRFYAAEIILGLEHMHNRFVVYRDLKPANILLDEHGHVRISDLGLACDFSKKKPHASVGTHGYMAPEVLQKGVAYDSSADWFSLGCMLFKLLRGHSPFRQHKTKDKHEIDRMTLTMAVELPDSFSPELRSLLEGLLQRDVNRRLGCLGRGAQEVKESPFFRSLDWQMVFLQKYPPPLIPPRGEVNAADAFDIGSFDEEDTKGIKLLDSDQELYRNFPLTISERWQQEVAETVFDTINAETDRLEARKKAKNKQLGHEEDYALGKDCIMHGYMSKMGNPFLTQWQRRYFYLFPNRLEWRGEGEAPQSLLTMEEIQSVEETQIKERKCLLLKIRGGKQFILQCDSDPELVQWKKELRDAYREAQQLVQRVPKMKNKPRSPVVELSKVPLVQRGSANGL", "sequence of UniProt P54646 (whole entry, looked up)": "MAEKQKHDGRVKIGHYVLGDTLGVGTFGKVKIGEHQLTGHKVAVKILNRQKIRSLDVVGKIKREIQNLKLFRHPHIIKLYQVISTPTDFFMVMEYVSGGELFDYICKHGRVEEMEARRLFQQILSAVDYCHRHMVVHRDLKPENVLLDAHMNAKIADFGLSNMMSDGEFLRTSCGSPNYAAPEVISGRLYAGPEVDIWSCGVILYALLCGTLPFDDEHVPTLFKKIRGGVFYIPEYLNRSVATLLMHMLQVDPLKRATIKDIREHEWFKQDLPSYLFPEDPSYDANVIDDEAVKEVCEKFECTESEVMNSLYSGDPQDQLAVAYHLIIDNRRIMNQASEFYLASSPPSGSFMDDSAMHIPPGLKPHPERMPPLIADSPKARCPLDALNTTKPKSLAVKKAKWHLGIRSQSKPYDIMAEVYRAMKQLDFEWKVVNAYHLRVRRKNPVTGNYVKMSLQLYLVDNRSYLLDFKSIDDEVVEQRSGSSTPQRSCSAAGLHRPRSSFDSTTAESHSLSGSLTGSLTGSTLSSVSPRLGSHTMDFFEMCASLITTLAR", "sequence of UniProt O00329 (whole entry, looked up)": "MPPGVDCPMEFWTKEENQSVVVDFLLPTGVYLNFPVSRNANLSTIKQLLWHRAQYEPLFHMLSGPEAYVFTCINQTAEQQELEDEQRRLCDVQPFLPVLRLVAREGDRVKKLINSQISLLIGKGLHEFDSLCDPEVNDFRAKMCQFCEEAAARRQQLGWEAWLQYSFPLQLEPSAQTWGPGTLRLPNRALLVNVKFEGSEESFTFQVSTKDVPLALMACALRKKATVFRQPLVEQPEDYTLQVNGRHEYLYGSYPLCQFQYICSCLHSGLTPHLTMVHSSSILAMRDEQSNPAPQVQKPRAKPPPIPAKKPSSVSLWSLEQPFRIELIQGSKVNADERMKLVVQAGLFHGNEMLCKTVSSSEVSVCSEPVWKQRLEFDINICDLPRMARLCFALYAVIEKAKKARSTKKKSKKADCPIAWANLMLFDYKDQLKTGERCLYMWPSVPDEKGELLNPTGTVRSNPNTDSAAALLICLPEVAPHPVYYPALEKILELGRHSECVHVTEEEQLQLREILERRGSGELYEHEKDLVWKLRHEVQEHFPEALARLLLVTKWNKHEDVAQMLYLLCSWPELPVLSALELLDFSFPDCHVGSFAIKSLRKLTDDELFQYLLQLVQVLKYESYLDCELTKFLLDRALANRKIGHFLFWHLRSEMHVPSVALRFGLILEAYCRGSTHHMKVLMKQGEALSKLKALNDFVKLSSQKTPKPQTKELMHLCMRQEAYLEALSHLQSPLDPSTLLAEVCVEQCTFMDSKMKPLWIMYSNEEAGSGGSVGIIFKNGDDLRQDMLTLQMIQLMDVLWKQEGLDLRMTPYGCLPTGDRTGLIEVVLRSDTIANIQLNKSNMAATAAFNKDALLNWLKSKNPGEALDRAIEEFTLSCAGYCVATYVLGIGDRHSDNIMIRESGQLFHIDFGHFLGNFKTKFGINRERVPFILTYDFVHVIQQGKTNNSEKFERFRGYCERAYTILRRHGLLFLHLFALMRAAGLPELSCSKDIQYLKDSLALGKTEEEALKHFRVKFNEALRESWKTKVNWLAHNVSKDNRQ", "sequence of UniProt P31749 (whole entry, looked up)": "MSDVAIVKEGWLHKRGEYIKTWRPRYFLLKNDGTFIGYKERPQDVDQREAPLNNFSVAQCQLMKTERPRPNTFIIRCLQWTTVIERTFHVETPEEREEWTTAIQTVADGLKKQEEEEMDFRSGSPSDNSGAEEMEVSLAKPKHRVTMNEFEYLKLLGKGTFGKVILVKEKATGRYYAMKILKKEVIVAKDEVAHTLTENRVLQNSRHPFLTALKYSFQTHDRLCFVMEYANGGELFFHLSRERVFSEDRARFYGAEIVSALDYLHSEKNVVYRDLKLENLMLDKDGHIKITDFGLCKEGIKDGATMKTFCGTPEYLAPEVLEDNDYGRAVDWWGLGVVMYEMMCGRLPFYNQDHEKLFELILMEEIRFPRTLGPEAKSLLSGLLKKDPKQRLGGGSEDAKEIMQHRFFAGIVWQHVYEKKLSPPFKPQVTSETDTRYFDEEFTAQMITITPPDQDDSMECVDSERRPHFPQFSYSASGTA", "sequence of UniProt Q8IYT8 (whole entry, looked up)": "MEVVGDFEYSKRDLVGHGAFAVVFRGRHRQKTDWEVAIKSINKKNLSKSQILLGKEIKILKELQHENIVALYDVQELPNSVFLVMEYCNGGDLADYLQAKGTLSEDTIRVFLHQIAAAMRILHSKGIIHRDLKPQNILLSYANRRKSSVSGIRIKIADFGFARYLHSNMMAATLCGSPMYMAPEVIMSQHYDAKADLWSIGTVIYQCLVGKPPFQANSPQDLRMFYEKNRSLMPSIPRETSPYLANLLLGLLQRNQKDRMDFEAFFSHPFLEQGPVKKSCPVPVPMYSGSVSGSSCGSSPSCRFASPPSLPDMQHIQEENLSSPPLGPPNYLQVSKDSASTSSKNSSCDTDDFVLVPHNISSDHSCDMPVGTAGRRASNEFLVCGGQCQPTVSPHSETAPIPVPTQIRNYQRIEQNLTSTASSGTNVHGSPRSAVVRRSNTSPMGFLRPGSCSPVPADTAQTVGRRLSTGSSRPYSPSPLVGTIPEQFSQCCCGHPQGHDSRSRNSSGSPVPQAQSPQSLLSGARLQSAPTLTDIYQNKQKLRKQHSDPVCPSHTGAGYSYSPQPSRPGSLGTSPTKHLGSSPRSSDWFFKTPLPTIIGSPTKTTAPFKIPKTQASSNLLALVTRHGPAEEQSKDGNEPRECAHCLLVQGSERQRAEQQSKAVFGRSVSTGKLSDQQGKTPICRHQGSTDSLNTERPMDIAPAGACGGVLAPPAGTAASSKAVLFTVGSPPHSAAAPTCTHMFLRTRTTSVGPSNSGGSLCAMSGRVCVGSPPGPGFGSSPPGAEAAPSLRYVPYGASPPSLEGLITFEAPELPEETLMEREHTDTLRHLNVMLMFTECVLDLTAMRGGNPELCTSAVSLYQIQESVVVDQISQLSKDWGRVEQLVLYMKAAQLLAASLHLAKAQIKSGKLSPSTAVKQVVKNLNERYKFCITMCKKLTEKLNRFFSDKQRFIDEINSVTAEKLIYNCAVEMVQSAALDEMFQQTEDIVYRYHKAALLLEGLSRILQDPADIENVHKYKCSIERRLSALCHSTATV", "sequence of UniProt Q05397 (whole entry, looked up)": "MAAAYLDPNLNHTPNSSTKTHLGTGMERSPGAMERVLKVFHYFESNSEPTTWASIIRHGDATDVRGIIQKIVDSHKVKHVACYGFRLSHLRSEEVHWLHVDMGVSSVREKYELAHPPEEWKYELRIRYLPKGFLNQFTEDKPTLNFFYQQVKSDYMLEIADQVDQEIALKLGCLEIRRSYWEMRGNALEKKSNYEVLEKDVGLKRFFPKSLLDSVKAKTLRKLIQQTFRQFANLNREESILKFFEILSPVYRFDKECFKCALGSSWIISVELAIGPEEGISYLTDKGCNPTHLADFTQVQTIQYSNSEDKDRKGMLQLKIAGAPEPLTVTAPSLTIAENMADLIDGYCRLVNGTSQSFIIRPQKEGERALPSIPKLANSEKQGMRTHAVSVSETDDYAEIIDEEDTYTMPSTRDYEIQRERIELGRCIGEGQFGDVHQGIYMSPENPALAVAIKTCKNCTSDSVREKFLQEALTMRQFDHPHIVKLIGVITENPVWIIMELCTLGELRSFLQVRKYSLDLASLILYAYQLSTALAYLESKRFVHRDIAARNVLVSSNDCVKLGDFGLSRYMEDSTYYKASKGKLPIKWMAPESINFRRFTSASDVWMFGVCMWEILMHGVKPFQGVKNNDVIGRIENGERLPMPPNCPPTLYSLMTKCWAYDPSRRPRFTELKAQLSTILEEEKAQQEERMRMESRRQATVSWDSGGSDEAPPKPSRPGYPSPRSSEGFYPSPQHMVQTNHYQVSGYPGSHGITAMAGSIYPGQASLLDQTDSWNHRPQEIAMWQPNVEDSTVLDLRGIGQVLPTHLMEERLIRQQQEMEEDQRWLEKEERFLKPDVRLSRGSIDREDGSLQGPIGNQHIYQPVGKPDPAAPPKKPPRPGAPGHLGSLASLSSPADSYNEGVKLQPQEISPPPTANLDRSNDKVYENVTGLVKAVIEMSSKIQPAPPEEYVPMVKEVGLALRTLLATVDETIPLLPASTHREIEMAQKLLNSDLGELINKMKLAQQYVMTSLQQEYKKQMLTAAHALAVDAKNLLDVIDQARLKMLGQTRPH"}
{"data": "Set 1", "target": "TAR DNA-binding protein 43, full length, His tag (TARDBP, Homo sapiens, UniProt Q13148, residues 1-414)", "method": "RNA Bind-n-Seq", "form": "RNA", "medium": "in vitro", "concentration": "20 nM", "notes": "6-mer, flanks averaged, single round", "added": "150 mM LiCl", "reference": "input library", "reading": "higher = stronger binding"}
{"Sequence": "CCAAUG", "6-mer enrichment (R)": 0.925}
{"Sequence": "AAGACG", "6-mer enrichment (R)": 0.837}
{"Sequence": "GUAGGU", "6-mer enrichment (R)": 1.13}
{"Sequence": "UGCAGU", "6-mer enrichment (R)": 1.02}
{"Sequence": "AUAACG", "6-mer enrichment (R)": 0.853}
{"Sequence": "AGGCUG", "6-mer enrichment (R)": 0.983}
{"Sequence": "UUGGAU", "6-mer enrichment (R)": 1.01}
{"Sequence": "UAUCCG", "6-mer enrichment (R)": 0.847}
{"data": "Set 2", "Compound": "Cn1cc(Cl)c2c(Oc3c(F)cc(Nc4cc(Cl)nc(N)n4)cc3F)ccnc21", "observed": "cell-free assay", "method": "competition with immobilised ligand", "concentration": "0.1 µM"}
{"target": "RAC-alpha serine/threonine-protein kinase (AKT1, Homo sapiens, UniProt P31749)", "remaining binding": "75%"}
{"target": "5'-AMP-activated protein kinase catalytic subunit alpha-2 (PRKAA2, Homo sapiens, UniProt P54646)", "remaining binding": "97%"}
{"target": "Focal adhesion kinase 1 (PTK2, Homo sapiens, UniProt Q05397)", "remaining binding": "100%"}
{"target": "Phosphatidylinositol 4,5-bisphosphate 3-kinase catalytic subunit delta isoform (PIK3CD, Homo sapiens, UniProt O00329)", "remaining binding": "51%"}
{"target": "Beta-adrenergic receptor kinase 1 (GRK2, Homo sapiens, UniProt P25098)", "remaining binding": "81%"}
{"target": "Serine/threonine-protein kinase ULK2 (ULK2, Homo sapiens, UniProt Q8IYT8)", "remaining binding": "100%"}
{"data": "Set 3", "target": "Phosphorylase b kinase gamma catalytic chain, liver/testis isoform (PHKG2, Homo sapiens, UniProt P15735)", "observed": "enzyme activity", "mode": "inhibitor", "concentration": "0.5 µM", "reference": "control", "Construct (P15735 1-406)": "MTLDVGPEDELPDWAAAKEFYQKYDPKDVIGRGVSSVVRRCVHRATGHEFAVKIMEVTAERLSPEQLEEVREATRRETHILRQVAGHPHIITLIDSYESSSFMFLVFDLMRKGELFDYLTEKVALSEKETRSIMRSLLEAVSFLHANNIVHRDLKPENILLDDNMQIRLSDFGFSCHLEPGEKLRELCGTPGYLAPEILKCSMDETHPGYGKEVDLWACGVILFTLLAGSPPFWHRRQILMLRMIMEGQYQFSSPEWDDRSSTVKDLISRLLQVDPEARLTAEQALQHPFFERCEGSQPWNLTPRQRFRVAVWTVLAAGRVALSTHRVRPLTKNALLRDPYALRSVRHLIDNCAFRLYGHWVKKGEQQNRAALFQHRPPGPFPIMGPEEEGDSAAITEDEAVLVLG"}
{"Compound": "O=C(O)c1ccc2c3c1cccc3c(=O)n1c3ccccc3nc21", "remaining activity": "94.7%"}
{"Compound": "Cc1ccc(NC(=O)c2ccc(CN3CCN(C)CC3)cc2)cc1Nc1nc(-c2cccnc2)cs1", "remaining activity": "69.1%"}
{"Compound": "Cc1nc(-c2ccccc2)c(-c2ccncc2)o1", "remaining activity": "97.6%"}
{"Compound": "O=C1NC(=O)C(c2cn(CCCn3ccnc3)c3ccccc23)=C1Nc1ccccc1", "remaining activity": "107%"}
{"Compound": "Cn1sc(=O)n(Cc2ccccc2)c1=O", "remaining activity": "90.6%"}
{"Compound": "O=C(Nc1cccc(Nc2cc(Nc3cccc(C(F)(F)F)c3)ncn2)c1)C1CC1", "remaining activity": "101%"}
{"Compound": "O=S(=O)(c1cccc2cnccc12)N1CCCNCC1", "remaining activity": "95.4%"}
{"Compound": "O=C(CCCc1ccc(-c2ccccc2F)cc1)Nc1ccc(O)cc1", "remaining activity": "102%"}
{"Compound": "COc1ccc(OC)c2c(=S)c3ccccc3[nH]c12", "remaining activity": "94.6%"}
{"Compound": "COc1cc2nccc(Oc3ccc(NC(=S)NC(=O)c4ccccc4C)cc3)c2cc1OC", "remaining activity": "110%"}
{"Compound": "C#Cc1cccc(Nc2ncnc3cc(OCCOC)c(OCCOC)cc23)c1", "remaining activity": "97.9%"}
{"Compound": "Nc1[nH]nc2nc3ccccc3nc12", "remaining activity": "96.6%"}
{"Compound": "CC(C)[C@H](CO)Nc1nc(Nc2cc(N)cc(Cl)c2)c2ncn(C(C)C)c2n1", "remaining activity": "105%"}
{"Compound": "COc1cc2ncnc(Nc3ccc(Oc4ccccc4)cc3)c2cc1OC", "remaining activity": "100%"}
{"Compound": "CCOC(=O)c1c(C)[nH]c(/C=C2\\C(=O)Nc3ccccc32)c1C", "remaining activity": "96.2%"}
{"data": "Mixed results"}
{"SMILES": "CC(=O)N[C@@H](Cc1c[nH]c2ccccc12)C(=O)N[C@@H](CCC(=O)C=[N+]=[N-])C(=O)OC(C)C", "test": "UPLC-MS/MS", "system": "EL4 tumor, C57BL/6 CES1-/- mice, tumor", "setting": "subcutaneous, 0.3 mg/kg DON equivalent daily, 5 days", "how to read": "higher = more metabolite", "endpoint": "ribose 1-phosphate level", "result": "6.97e+06 a.u. and 6.12e+06 a.u. and 9.56e+06 a.u. and 7.4e+06 a.u. and 7.65e+06 a.u. and 7.47e+06 a.u."}
{"note": "Excerpt of the above (set 3):"}
{"Compound": "Cc1nc(-c2ccccc2)c(-c2ccncc2)o1", "remaining activity": "97.6%"}
{"Compound": "O=C(O)c1ccc2c3c1cccc3c(=O)n1c3ccccc3nc21", "remaining activity": "94.7%"}
